Assay results of several laboratories.
Each line is one published result; not all experiments were run side by side. Several values in a cell are separate wells, animals, samples, runs or records. Numbers after ± are the reported error.

By UniProt entry, the sequences of proteins in these tests, tags left out.
UniProt Q16539, whole entry: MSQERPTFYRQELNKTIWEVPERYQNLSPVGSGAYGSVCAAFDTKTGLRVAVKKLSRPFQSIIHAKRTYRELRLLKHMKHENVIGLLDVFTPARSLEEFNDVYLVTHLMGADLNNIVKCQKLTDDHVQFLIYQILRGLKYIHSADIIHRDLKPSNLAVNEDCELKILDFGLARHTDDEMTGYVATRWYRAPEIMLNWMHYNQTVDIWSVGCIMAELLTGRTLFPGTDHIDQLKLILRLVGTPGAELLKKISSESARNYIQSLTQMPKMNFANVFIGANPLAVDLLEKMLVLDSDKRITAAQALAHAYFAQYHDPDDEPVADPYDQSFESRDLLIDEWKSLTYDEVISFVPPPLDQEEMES

SMILES | tested on | assay | system | setting | scale | endpoint | result
Cc1c(Cn2c(C)nc3c(C(=O)O)cc(N4CCOCC4)cc32)cccc1C(F)(F)F | C4-2B enzalutamide-resistant | cell growth, WST-8 | – | 3 days | – | EC50 | 38300 nM
C=C(C)C(=O)Nc1ccc(-c2c(-c3ccc(Oc4nccc(C)n4)c(F)c3)c3c(N)ncnc3n2C)cc1 | MFE-280 | cell growth, CellTiter-Glo | – | 120 h | – | EC50 | 665 nM
CC(C)C[C@H](NC(=O)[C@H](C)NC(=O)[C@H](CCCNC(=N)N)NC(=O)[C@H](CCCNC(=N)N)NC(=O)[C@H](CCCNC(=N)N)NC(=O)[C@H](C)NC(=O)[C@H](CC(C)C)NC(=O)[C@H](CCCNC(=N)N)NC(=O)[C@H](CO)NC(=O)[C@H](CCCCN)NC(=O)[C@H](CO)NC(=O)Cn1cc(COC(=O)[C@]2(C)C=C(C(=O)OC(C)(C)C)C(=O)CC2)nn1)C(=O)O | MAPK14 (Homo sapiens, UniProt Q16539) | enzyme activity, inhibitor, D-SENSOR kinase | – | 22.22 µM, unit not given | baseline: untreated | remaining activity | 0.017 and 0.0159 and 0.00584
CC(C)CC(NC(=O)C(Cc1ccccc1)NC(=O)c1cnc(C(=O)NC(Cc2ccccc2)C(=O)NC(CC(C)C)B(O)O)cn1)B(O)O (stereo not shown) | proteasome (human) | trypsin-like activity, inhibitor, Proteasome-Glo | MM1.S | 24 h | – | IC50 | > 18 nM
CCOC(=O)c1c(-c2ccc(Cl)cc2Cl)n(-c2nc(-c3ccc(Cl)cc3)c3c(NC(=O)c4ccccc4)nnc-3[nH]2)[nH]c1=O | A498 | SRB | – | – | – | GI50 | 1050 nM
CC/C=C\C/C=C\CCC/C=C/C=C/C=C\CCCC(=O)O | HL-60 | flow cytometry | – | 12.5 µM, 24 h | – | G1 phase cells | 46.5%
CN(C)CCNC(=O)c1cccc2ccc(-c3ccc(-c4ccccc4)cc3)nc12 | MDA-MB-468 | cytotoxicity, MTT | – | 3 h exposure, 96 h total | – | IC50 | 5100 ± 2300 nM
CC(=O)NCCCC[C@H](NC(=O)[C@H](CCCNC(=N)N)NC(=O)[C@H](C)NC(=O)[C@@H](NC(=O)[C@H](CCC(N)=O)NC(=O)[C@H](CCCCN)NC(=O)[C@@H](NC(=O)[C@H](CCCNC(=N)N)NC(=O)[C@H](C)N)[C@@H](C)O)[C@@H](C)O)C(=O)N[C@@H](CO)C(=O)N[C@H](C(=O)NCC(=O)O)[C@@H](C)O | human MORF PHD1/2 D289A | binding, NMR titration | – | 298 K | – | interaction | inhibited
CCCCNC(=O)C(=O)NCCCC/C=C\CCCCCCC1=NOS(=O)N1 (stereo not shown) | – | vasorelaxation, isometric tension | bovine coronary artery rings | with: U46619 precontraction | – | EC50 | 360 nM
N#Cc1c(-c2ccc(Cl)cc2Cl)n(-c2nc(-c3ccc(Cl)cc3)c3c(NC(=O)c4ccccc4)nnc-3[nH]2)[nH]c1=O | SW-620 | SRB | – | 10 µM | baseline: untreated | cell growth | 22.9%

Excerpt of the above:
SMILES | tested on | assay | system | setting | scale | endpoint | result
CCOC(=O)c1c(-c2ccc(Cl)cc2Cl)n(-c2nc(-c3ccc(Cl)cc3)c3c(NC(=O)c4ccccc4)nnc-3[nH]2)[nH]c1=O | A498 | SRB | – | – | – | GI50 | 1050 nM
